Published values of several laboratories.
Numbered parts are unrelated; each lists some results of a single study.

Series 1 — method: RNA Bind-n-Seq; molecule type: RNA; medium: in vitro; tested at: 365 nM; reference: no-protein control; reading: higher = stronger binding
Target: RNA binding protein fox-1 homolog 2, RRM domain, GST-SBP tag (RBFOX2, Homo sapiens, UniProt O43251-10, residues 100-194)
Notes: natural RNA segment, single round, ends assumed
Constant ends, left off below: GGGAGUUCUACAGUCCGACGAUC … UGGAAUUCUCGGGUGCCAA
`AUGUCUUUCUAAAAUUGUCUAUUAAAGCAGAGGAAAUACCUGCCAAAGGAAGUAUGUAUUGCAUUAAUCAGGGCAUAACUAAUAUUCUCCUGUUCAGAAUAAUACUUAUU`: “RBNS enrichment (R)” 0.475.
`ACCCUCUUGAUUGGAGCUUUUGUGAUGCAGCUACCAUGAUUCAAAAAAAUUAAAAAUUAAAAAAAAAAAAUCUGCCACUUAUCCAAGUCCACUAGAGGCCACUGUCUUCA`: “RBNS enrichment (R)” 3.84.
`AUCAGGUCAGAUAUCUGAUGAAAAAUACGAACUAAUGUUAAGAGCAAGUAGUUUCAACAUACUCCAGGAACUGAGAAACAAAACAAAGCAAUUGUGGGUUUUGAGCUCCA`: “RBNS enrichment (R)” 0.369.
For `CACACCUGGCCAAGAAUACCACUUUUGAAGUUAAUCCUUUUGUGUGAUACAGGAUGAACUUGGGAUGUUUGAACCCUGGACAUUCCAAAUAAAGAAUAGGCCCCUGCCUG`, “RBNS enrichment (R)” read 0.472.
For `CACCCCUUUAUCGCAUUGCUGUCCUUGGGUAGAAUAUAAAAUAAAGGGACUUUUAUUUCUUAUUGGAGACCUUUGUCAUUCUUUUUGACUACCCAGCAUCUGAGGGAAUU`, “RBNS enrichment (R)” read 0.486.
`UCAAAAUUCCACAGUAAUUAAAAUUUGAAUUUUUACCGAAUAUGAAAUUUCCAAAUUAAAAACGUAUAUGUGUACUCUUUUAAAAAGGAAUUUGAUAGUUCUUGUCAAAU`: “RBNS enrichment (R)” 0.637.

Series 2 — method: aptamer microarray, sandwich; molecule type: DNA with 2'F-ANA; medium: in vitro; tested at: 200 nM; together with: Cy3 exosite-II aptamer, 400 nM; reading: higher = stronger binding; oligonucleotide: GGTTGGTGTGGTTGG
Target: Prothrombin, mature alpha-thrombin (F2, Homo sapiens, UniProt P00734)
Notes: whole 15-mer aptamer, many near background
`2'F-ANA at 1 3 8 9 11 14`: “mean fluorescence intensity” 89 a.u.
Under “mean fluorescence intensity”, `2'F-ANA at 1 2 3 7 9 12 13 14` is recorded as 80.9 a.u.
`2'F-ANA at 3 5 7 10 11 13 14 15`: “mean fluorescence intensity” 60.4 a.u.
`2'F-ANA at 1 2 5 6 7 11 12 13 15`: “mean fluorescence intensity” 66.6 a.u.
Under “mean fluorescence intensity”, `2'F-ANA at 2 3 4 6 9 10 11 13 15` is recorded as 148 a.u.
`2'F-ANA at 1 2 5 9 10 14 15`: “mean fluorescence intensity” 49.4 a.u.

Series 3 — method: protein-binding microarray; molecule type: double-stranded DNA, one strand shown; medium: in vitro; tested at: 250 nM; notes: 60-bp whole probe; together with: salmon DNA 0.4 mg/ml; reference: random background probes; reading: higher = stronger binding
Target: Interferon regulatory factor 7, full length, phosphomimetic (IRF7, Homo sapiens, UniProt Q92985, residues 1-503, S101K/S471D/S472D/S475D/S476D/S477D/S483D/S484D/S487D)
Construct (chain): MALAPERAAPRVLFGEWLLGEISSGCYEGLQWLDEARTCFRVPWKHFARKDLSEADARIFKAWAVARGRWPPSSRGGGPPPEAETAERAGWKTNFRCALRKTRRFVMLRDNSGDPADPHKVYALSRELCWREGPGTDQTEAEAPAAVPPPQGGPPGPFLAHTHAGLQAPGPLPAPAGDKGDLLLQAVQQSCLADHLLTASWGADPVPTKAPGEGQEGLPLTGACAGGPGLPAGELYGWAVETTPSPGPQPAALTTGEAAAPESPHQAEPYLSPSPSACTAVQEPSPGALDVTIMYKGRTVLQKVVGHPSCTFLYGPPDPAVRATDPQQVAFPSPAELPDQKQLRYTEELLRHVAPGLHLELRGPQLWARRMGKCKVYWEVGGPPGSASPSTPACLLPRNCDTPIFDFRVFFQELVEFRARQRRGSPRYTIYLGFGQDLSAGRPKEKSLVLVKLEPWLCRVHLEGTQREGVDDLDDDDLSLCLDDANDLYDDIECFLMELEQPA
`GCCTAGCACTTAGGTTCCGGTTTCGGTTCGTGCTAGGTCTTGATTCGCTTGACGCTGCTG` has a log fluorescence of 12.7 z-score.
`GCCTAGCACGCACCTCTAGACTCTAAATTCGTGCTAGTCTTGATTCGCTTGACGCTGCTG` gave a log fluorescence of 0.225 z-score.
For `GCCTAGCACGACGGTTTCGACTTTCGGCACGTGCTAGTCTTGATTCGCTTGACGCTGCTG`, the log fluorescence was 10.7 z-score.
The log fluorescence of `GCCTAGCACGACGATATCTGACTGGAGACGTGCTAGGTCTTGATTCGCTTGACGCTGCTG` is reported as -0.208 z-score.

Further values, each from its own experiment
`PhoQ, residues 284 288 289 292 302 303 TNASYF` has a fold induction of 1.29 (PhoP, residues 12 14 15 18 19 SYFRT (Escherichia coli, UniProt P23836); Sort-seq, measured: YFP reporter; E. coli; PhoQ-PhoP variant library, together with: 10 µM Mg2+; reference: high Mg2+ state, higher = stronger signaling).

For quick reference, copied from above (series 2):
Under “mean fluorescence intensity”, `2'F-ANA at 1 2 3 7 9 12 13 14` is recorded as 80.9 a.u.
